Experimental data collected from several papers.
Every numbered part comes from another study and shows a few of its results, in no order. pIC50: −log10 of the molar value.
Chain of UniProt Q9UPE1 (whole entry, looked up): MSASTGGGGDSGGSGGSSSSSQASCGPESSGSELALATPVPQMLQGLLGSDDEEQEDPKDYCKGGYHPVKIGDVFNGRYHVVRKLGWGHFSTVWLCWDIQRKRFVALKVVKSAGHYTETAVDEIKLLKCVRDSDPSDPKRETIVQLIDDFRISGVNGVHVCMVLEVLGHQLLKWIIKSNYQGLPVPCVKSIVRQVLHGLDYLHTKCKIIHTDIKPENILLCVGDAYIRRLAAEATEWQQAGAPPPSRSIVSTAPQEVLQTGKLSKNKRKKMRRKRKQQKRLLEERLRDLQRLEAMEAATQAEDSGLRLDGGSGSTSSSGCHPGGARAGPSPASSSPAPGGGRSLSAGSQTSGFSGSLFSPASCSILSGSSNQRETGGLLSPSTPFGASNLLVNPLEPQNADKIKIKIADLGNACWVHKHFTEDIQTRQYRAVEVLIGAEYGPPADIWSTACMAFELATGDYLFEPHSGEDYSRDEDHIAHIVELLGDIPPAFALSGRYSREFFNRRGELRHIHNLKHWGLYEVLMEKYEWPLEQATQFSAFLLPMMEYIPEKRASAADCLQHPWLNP
Chain of UniProt P12814 (whole entry, looked up): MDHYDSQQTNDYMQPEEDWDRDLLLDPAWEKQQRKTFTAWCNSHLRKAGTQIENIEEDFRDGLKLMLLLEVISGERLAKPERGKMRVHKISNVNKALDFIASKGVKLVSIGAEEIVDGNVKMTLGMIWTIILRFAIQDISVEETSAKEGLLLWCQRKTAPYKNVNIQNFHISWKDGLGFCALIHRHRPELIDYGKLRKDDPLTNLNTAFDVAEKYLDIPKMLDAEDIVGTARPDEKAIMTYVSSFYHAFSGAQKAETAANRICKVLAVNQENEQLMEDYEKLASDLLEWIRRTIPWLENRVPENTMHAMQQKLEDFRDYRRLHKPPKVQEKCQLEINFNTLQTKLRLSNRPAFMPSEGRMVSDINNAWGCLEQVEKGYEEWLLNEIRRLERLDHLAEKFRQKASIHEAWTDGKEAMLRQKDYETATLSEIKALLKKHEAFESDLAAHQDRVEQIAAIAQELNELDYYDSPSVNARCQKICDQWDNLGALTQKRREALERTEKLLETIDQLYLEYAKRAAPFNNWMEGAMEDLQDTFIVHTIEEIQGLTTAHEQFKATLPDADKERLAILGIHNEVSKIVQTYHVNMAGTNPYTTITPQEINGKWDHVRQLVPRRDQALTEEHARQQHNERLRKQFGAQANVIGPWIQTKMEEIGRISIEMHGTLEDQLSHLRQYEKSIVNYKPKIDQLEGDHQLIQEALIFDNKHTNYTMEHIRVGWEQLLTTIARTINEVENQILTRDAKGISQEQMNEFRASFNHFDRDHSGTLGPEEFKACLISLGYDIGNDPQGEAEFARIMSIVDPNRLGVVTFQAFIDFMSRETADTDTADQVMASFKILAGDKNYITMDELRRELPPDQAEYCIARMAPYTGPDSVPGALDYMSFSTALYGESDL
Chain of UniProt Q9C098 (whole entry, looked up): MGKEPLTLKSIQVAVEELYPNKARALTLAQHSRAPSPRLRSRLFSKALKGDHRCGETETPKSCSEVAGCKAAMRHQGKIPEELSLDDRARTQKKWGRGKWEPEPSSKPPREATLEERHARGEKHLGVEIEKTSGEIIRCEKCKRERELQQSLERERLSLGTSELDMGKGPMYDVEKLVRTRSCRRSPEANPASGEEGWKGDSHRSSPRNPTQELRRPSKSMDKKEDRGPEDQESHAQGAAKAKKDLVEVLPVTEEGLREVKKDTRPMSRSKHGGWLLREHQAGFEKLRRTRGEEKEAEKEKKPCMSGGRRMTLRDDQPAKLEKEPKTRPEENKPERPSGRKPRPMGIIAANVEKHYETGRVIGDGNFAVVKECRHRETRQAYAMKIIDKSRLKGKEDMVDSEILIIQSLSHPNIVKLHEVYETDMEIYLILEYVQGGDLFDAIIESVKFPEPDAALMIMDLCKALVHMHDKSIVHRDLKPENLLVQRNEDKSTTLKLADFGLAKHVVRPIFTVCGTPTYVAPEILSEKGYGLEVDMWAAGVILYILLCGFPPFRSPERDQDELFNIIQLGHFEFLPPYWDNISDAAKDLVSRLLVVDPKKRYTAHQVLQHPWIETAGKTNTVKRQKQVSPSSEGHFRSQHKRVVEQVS
Chain of UniProt P22455 (whole entry, looked up): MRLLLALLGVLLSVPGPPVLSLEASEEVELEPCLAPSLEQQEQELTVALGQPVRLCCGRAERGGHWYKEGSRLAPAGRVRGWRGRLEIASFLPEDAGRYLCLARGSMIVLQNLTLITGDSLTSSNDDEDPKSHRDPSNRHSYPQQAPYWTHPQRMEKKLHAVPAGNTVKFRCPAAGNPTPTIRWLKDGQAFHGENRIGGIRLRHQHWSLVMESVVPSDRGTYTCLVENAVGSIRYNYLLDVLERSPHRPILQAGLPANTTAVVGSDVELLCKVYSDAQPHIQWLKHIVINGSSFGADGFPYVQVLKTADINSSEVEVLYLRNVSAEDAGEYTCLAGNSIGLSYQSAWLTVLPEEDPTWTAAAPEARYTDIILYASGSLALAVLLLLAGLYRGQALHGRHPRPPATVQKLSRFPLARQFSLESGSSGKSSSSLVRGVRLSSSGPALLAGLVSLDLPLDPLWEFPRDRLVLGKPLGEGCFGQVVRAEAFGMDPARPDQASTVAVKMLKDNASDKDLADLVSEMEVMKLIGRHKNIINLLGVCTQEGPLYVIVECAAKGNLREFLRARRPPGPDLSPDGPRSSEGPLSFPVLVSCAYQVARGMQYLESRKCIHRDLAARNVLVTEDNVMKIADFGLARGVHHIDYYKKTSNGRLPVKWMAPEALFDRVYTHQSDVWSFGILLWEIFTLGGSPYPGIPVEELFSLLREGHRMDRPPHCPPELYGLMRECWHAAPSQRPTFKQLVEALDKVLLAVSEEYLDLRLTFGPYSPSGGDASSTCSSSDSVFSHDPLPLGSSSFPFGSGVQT
Chain of UniProt Q15375 (whole entry, looked up): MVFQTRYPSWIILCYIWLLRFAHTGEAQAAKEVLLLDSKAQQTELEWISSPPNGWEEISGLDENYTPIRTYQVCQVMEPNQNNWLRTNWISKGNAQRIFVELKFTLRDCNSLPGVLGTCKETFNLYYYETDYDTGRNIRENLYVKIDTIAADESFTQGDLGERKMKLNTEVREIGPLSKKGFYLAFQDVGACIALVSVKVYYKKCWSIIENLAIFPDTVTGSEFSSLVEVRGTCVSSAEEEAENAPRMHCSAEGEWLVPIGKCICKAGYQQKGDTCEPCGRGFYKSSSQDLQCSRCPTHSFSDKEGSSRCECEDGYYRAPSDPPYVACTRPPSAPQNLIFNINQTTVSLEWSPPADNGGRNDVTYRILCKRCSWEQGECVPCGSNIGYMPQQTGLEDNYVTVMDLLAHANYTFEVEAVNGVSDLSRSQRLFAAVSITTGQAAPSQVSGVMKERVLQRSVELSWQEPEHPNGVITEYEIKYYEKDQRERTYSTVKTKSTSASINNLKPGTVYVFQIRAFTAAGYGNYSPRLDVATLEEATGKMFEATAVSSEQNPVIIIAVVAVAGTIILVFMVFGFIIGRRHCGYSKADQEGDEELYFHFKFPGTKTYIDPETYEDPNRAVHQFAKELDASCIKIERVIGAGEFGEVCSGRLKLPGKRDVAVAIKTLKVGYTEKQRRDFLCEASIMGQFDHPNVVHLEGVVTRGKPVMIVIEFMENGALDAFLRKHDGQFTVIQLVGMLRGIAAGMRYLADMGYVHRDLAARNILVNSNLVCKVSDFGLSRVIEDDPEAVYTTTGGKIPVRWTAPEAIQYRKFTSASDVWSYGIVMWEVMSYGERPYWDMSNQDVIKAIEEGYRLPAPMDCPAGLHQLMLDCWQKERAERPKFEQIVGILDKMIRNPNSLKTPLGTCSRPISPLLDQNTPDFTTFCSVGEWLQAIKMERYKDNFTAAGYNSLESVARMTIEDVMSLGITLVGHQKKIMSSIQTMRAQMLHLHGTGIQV
Chain of UniProt Q00532 (whole entry, looked up): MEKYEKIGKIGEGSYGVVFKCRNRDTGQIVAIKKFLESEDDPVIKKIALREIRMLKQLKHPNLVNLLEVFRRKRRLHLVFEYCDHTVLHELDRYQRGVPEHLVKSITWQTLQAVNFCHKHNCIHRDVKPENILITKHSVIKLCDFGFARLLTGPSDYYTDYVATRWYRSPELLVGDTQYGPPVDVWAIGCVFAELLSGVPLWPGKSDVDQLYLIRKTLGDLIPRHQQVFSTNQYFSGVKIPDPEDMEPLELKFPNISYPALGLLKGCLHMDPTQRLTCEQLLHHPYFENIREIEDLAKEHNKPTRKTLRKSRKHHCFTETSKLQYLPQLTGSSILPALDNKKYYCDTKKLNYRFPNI

Series 1
Target: Beta-adrenergic receptor kinase 1 (GRK2, Homo sapiens, UniProt P25098)
Chain of UniProt P25098 (whole entry, looked up): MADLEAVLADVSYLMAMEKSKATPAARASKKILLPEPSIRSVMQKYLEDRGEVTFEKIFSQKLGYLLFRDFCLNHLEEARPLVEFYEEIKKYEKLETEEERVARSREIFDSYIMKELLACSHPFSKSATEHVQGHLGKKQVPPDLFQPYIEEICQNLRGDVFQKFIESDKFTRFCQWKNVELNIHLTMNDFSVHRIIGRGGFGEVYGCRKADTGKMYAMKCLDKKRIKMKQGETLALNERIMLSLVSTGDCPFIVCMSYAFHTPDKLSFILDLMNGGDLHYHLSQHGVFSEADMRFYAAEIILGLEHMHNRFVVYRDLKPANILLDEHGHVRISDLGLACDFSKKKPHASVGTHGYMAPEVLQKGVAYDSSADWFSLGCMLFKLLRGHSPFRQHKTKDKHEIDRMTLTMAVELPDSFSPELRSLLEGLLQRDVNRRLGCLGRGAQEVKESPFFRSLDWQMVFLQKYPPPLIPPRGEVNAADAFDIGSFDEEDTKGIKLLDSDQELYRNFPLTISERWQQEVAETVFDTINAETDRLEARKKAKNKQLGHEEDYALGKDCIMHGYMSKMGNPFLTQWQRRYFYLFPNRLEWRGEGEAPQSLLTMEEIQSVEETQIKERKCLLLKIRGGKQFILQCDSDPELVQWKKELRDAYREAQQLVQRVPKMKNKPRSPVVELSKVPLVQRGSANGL
Observed: enzyme activity
Mode: inhibitor
Tested at: 0.5 µM
Baseline: control
| Compound | remaining activity |
| --- | --- |
| c1ccc(-c2[nH]ncc2-c2ccnc3ccccc23)nc1 | 101% |
| CCN(CC)C(=O)c1ccc(Nc2nc(OCC3CCCCC3)c3[nH]cnc3n2)cc1 | 92.6% |
| O=C(Nc1cccc(Nc2nccc(Nc3cccc(C(F)(F)F)c3)n2)c1)C1CC1 | 84.7% |
| COc1cc2ncnc(Nc3ccc(O)c(Br)c3)c2cc1OC | 99% |
| O=C1C(Cl)=C(N2C(=O)CCC2=O)C(=O)c2ccccc21 | 105% |

Series 2
Cell line: mouse MPNST tumor cells
Technique: high-content immunofluorescence imaging
Refers to: nuclear SOX9
Tested at: 10 µM
Time: 12 h
Notes: mean of 2 replicates
Baseline: DMSO control
Reading: higher = more nuclear SOX9
| Structure (SMILES) | nuclear SOX9 intensity |
| --- | --- |
| c1coc(-c2nnc3sc(C4CCCCC4)nn23)c1 | 101 % of DMSO |
| O=C(Nc1cccnc1)c1cc(-c2ccnc(F)c2)ccc1OCc1ccccc1 | 118 % of DMSO |
| CN(C)[C@@H]1CCN(c2cc(-c3ccccc3)nc3ccnn23)C1 | 127 % of DMSO |
| CCCNC(C)(C)COC(=O)c1ccccc1 | 102 % of DMSO |
| Nc1nc(Cl)nc2c1ncn2[C@@H]1O[C@H](CO)[C@@H](O)[C@H]1O | 105 % of DMSO |
| CC1(C)CCC(C)(C)c2cc3cc(-c4cc(C(=O)O)cs4)ccc3cc21 | 111 % of DMSO |

Series 3
Structure (SMILES): O=C(O)[C@H]1[C@H](Cn2nnc3ccccc3c2=O)CC[C@@H]1C(=O)c1ccc(OCCC2CCOCC2)cc1
Technique: competition with immobilised ligand
Tested at: 1 µM
| target | observed | remaining binding [%] |
| --- | --- | --- |
| CDKL1 (Homo sapiens, UniProt Q00532) | binding | 99 |
| MYLK (Homo sapiens, UniProt Q15746) | cell-free assay | 74 |
| SRPK3 (Homo sapiens, UniProt Q9UPE1) | cell-free assay | 84 |
| PIK3C2B (Homo sapiens, UniProt O00750) | cell-free assay | 90 |
| EPHA7 (Homo sapiens, UniProt Q15375) | cell-free assay | 100 |
| TNK2 (Homo sapiens, UniProt Q07912) | cell-free assay | 100 |
| FGFR4 (Homo sapiens, UniProt P22455) | cell-free assay | 100 |
| DCLK3 (Homo sapiens, UniProt Q9C098) | cell-free assay | 98 |
| HUNK (Homo sapiens, UniProt P57058) | cell-free assay | 71 |
| CAMK1G (Homo sapiens, UniProt Q96NX5) | cell-free assay | 90 |
| Myosin-IIIa (MYO3A, Homo sapiens, UniProt Q8NEV4) | binding | 100 |

Series 4
Structure (SMILES): CC(C)[C@H](CO)Nc1nc(Nc2cccc(Cl)c2)c2ncn(C(C)C)c2n1
| target | observed | technique | organism | sample | pIC50 |
| --- | --- | --- | --- | --- | --- |
| MAP2K2 (Homo sapiens, UniProt P36507) |  |  |  |  | < 5.00 |
| Trypanosoma brucei protein Tb427tmp.211.4513 | binding | kinobead competition |  | Trypanosoma brucei lysate | < 5.00 |
| Trypanosoma brucei protein Tb427tmp.01.1680 | binding | kinobead competition |  | Trypanosoma brucei lysate | < 5.00 |
| protein Tb427tmp.01.8510 |  | kinobead TMT proteomics | Trypanosoma brucei | cell lysate | < 5.00 |
| protein Tb427tmp.02.2030 |  | kinobead TMT proteomics | Trypanosoma brucei | cell lysate | < 5.00 |
| Alpha-actinin-1 (Homo sapiens, UniProt P12814) |  |  |  |  | < 5.00 |

For quick reference, copied from above (series 3):
| target | observed | remaining binding [%] |
| --- | --- | --- |
| PIK3C2B (Homo sapiens, UniProt O00750) | cell-free assay | 90 |
| TNK2 (Homo sapiens, UniProt Q07912) | cell-free assay | 100 |
| MYLK (Homo sapiens, UniProt Q15746) | cell-free assay | 74 |
| SRPK3 (Homo sapiens, UniProt Q9UPE1) | cell-free assay | 84 |
